Published values of several laboratories.
Each numbered part is a random draw from the data of one study; scales do not carry over between parts. Several values in a cell are separate wells, animals, samples, runs or records.
Sequence of UniProt P32298 (whole entry, looked up): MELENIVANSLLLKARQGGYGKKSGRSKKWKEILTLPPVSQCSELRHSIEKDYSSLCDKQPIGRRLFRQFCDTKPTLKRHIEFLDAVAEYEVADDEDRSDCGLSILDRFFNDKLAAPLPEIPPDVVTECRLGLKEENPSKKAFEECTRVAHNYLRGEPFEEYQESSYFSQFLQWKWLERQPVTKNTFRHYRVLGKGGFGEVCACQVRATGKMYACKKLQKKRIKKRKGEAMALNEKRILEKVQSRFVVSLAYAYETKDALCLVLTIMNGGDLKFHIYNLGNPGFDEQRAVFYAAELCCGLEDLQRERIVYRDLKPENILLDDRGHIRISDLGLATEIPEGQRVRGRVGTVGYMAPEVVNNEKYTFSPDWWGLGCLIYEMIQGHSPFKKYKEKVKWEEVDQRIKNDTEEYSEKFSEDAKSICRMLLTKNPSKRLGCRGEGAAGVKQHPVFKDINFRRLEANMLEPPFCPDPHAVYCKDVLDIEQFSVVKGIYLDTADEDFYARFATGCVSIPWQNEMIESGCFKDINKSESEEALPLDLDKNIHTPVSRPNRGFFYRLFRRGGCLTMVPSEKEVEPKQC
Sequence of UniProt Q92630 (whole entry, looked up): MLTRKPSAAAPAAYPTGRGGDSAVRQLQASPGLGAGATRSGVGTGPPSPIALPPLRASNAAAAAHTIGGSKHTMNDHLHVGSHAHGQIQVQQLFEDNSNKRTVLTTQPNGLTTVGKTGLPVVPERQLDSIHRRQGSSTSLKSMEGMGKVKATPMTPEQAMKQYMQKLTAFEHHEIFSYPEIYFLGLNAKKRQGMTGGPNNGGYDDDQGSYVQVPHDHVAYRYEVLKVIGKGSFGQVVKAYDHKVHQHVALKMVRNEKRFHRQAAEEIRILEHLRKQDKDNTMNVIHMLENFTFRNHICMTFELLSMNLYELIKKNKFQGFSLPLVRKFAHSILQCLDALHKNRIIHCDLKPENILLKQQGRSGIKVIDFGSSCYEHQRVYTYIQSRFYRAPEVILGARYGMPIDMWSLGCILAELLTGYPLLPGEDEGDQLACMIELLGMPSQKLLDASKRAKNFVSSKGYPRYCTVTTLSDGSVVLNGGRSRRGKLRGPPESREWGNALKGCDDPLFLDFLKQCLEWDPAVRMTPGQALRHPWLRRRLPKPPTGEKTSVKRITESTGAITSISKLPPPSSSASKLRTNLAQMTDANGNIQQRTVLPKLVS
Sequence of UniProt O76039 (whole entry, looked up): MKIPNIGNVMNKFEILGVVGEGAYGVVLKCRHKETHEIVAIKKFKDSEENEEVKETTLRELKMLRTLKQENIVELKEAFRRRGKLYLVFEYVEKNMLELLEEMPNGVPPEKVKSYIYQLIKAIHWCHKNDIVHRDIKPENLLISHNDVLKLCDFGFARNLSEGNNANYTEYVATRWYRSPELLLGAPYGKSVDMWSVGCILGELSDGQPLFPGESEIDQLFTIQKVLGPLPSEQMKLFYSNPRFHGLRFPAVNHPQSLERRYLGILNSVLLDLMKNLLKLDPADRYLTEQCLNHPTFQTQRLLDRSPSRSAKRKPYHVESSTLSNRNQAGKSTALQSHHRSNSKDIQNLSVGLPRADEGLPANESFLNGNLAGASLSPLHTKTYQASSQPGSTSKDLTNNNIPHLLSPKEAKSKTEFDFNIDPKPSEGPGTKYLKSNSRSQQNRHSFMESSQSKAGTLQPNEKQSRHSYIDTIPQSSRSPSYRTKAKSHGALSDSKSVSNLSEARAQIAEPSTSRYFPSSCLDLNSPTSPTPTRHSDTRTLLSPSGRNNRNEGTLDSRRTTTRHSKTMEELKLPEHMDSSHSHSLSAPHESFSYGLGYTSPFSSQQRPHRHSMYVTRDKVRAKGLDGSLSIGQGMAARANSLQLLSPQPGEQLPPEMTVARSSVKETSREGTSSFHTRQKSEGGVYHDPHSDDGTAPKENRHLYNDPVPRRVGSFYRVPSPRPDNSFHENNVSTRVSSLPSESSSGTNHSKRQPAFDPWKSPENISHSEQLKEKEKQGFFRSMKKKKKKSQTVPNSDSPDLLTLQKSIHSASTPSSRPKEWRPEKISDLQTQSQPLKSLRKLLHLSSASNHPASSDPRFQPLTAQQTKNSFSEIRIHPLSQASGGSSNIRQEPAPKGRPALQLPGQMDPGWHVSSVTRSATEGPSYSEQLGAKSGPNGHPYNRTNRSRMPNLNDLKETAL
Sequence of UniProt Q96L34 (whole entry, looked up): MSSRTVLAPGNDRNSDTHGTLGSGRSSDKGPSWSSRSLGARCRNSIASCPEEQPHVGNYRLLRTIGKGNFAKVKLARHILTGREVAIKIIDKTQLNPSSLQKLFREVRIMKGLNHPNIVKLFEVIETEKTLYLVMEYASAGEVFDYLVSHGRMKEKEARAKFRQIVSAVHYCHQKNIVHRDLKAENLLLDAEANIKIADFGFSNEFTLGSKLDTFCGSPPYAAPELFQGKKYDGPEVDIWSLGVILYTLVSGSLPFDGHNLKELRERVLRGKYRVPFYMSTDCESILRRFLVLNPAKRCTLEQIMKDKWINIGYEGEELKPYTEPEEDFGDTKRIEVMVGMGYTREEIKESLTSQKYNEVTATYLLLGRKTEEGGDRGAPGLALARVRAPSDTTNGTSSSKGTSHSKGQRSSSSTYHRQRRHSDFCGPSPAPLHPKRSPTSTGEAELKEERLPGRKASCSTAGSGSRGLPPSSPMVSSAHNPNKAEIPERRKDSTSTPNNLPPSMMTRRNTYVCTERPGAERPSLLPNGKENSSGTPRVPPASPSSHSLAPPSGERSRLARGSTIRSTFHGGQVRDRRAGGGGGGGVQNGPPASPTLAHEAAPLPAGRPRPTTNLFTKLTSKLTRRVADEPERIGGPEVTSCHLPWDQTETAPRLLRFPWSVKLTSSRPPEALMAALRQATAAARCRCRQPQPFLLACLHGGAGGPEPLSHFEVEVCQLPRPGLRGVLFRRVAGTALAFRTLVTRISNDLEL
Sequence of UniProt Q00532 (whole entry, looked up): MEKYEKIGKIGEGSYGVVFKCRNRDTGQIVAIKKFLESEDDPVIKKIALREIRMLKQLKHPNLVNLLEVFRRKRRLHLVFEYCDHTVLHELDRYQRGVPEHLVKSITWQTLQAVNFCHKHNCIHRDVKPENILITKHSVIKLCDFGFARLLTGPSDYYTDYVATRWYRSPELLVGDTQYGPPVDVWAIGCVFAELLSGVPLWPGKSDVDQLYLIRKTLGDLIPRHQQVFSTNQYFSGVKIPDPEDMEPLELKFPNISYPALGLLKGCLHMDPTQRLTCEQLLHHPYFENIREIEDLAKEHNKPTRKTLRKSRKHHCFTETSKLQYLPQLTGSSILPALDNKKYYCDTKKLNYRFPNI
Sequence of UniProt P61075 (whole entry, looked up): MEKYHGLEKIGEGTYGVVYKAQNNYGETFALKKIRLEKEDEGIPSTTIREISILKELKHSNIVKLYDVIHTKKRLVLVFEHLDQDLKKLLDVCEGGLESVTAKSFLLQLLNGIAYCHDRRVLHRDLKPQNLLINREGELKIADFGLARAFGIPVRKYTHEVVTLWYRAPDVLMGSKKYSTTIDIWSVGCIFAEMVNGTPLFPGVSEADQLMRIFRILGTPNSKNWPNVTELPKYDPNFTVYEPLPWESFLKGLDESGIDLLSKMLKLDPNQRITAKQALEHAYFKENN

Set 1
Target: E3 ubiquitin-protein ligase NEDD4, HECT domain (Homo sapiens, UniProt P46934)
Read-out: enzyme activity
Action: inhibitor
Technique: Ub-TR-FRET
Sample: HECT domain
Concentration: 0.4115 µM
Reading: higher = more chain formation
Endpoint: ubiquitin chain formation AUC
Residues (P46934 938-1319, limits assumed): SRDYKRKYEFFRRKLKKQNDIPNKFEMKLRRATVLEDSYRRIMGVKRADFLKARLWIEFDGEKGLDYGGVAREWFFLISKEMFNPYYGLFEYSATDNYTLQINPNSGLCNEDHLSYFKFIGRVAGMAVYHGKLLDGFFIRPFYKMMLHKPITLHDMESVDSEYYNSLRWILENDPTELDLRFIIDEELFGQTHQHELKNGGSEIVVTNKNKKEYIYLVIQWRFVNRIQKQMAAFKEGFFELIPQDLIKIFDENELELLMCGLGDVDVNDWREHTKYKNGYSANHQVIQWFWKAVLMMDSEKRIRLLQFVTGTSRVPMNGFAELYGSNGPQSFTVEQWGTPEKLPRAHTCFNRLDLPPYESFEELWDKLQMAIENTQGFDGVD
CCOC(=O)/C=C/CN(CCCCN1c2ccccc2CCc2ccc(Cl)cc21)C(C)C.O=C(O)/C=C\C(=O)O: 72600 a.u. and 74600 a.u. and 73500 a.u. and 72800 a.u. and 74300 a.u. and 73200 a.u.
N#C/C=C/CNCCCCN1c2ccccc2CCc2ccc(Cl)cc21.O=C(O)/C=C\C(=O)O: 43500 a.u. and 51400 a.u. and 47500 a.u. and 48100 a.u. and 44300 a.u. and 59400 a.u.
CCOC(=O)/C=C/CNCCCCN1c2ccccc2C(=O)N(C)c2ccc(Cl)cc21.O=C(O)/C=C\C(=O)O: 87000 a.u. and 87600 a.u. and 89400 a.u.
CCONC(=O)/C=C/CNCCCCN1c2ccccc2CCc2ccc(Cl)cc21.O=C(O)/C=C\C(=O)O: 27500 a.u. and 18500 a.u. and 17400 a.u. and 25900 a.u. and 18000 a.u. and 26200 a.u.
CNC(=O)/C=C/CNCCCN1c2ccccc2CCc2ccc(Cl)cc21.Cl: 131000 a.u. and 133000 a.u.
CNCCCN1c2ccccc2CCc2ccc(Cl)cc21: 147000 a.u. and 146000 a.u. and 144000 a.u.
COC(=O)CCCNCCCN1c2ccccc2CCc2ccc(Cl)cc21.COC(=O)CCCNCCCN1c2ccccc2CCc2ccc(Cl)cc21.O=C(O)/C=C/C(=O)O: 131000 a.u. and 130000 a.u.
CCOC(=O)/C=C/CN(CC)CCCCN1c2ccccc2CCc2ccc(Cl)cc21.O=C(O)/C=C\C(=O)O: 87000 a.u. and 77400 a.u. and 88800 a.u. and 77900 a.u. and 76700 a.u. and 85600 a.u.
CN(C)C(=O)/C=C/CNCCCN1c2ccccc2CCc2ccc(Cl)cc21.Cl: 139000 a.u. and 140000 a.u. and 141000 a.u.
CNC(=O)/C=C/CNCCCCN1c2ccccc2CCc2ccc(Cl)cc21.Cl: 85500 a.u. and 70000 a.u. and 68300 a.u. and 85900 a.u. and 69100 a.u. and 84200 a.u.
CCOC(=O)/C=C/CNCCCCN1c2ccccc2COc2ccc(Cl)cc21.O=C(O)/C=C\C(=O)O: 68800 a.u. and 66400 a.u. and 63600 a.u.
CC(C)ONC(=O)/C=C/CNCCCCN1c2ccccc2CCc2ccc(Cl)cc21.O=C(O)/C=C\C(=O)O: 32600 a.u. and 31900 a.u. and 27400 a.u. and 28600 a.u. and 27300 a.u.

Set 2
Structure (SMILES): CCC1(c2cccc(-c3cn(C)nc3C)c2)C2=C(Nc3n[nH]cc31)C(F)C(C)(C)CC2=O (single isomer, unassigned)
Concentration: 1 µM
Endpoint: remaining binding
DYRK2 (Homo sapiens, UniProt Q92630); kinase binding, KINOMEscan; baseline: DMSO control: 82%
PRKG2 (Homo sapiens, UniProt Q13237); kinase binding, KINOMEscan; baseline: DMSO control: 100%
ULK2 (Homo sapiens, UniProt Q8IYT8); kinase binding, KINOMEscan; baseline: DMSO control: 77%
GRK4 (Homo sapiens, UniProt P32298); binding, competition with immobilised ligand: 100%
CRK2 (Plasmodium falciparum, UniProt P61075); binding, competition with immobilised ligand: 100%
STK36 (Homo sapiens, UniProt Q9NRP7); binding, competition with immobilised ligand: 100%
NEK1 (Homo sapiens, UniProt Q96PY6); binding, competition with immobilised ligand: 100%
FLT3 (Homo sapiens, UniProt P36888); kinase binding, KINOMEscan; baseline: DMSO control: 100%
PHKG1 (Homo sapiens, UniProt Q16816); binding, competition with immobilised ligand: 100%
KIT (Homo sapiens, UniProt P10721, A829P); binding, competition with immobilised ligand: 97%
ERBB3 (Homo sapiens, UniProt P21860); kinase binding, KINOMEscan; baseline: DMSO control: 100%
EPHA1 (Homo sapiens, UniProt P21709); kinase binding, KINOMEscan; baseline: DMSO control: 96%
CIT (Homo sapiens, UniProt O14578); binding, competition with immobilised ligand: 100%
MARK4 (Homo sapiens, UniProt Q96L34); binding, competition with immobilised ligand: 100%
CDKL1 (Homo sapiens, UniProt Q00532); binding, competition with immobilised ligand: 89%
DSTYK (Homo sapiens, UniProt Q6XUX3); binding, competition with immobilised ligand: 86%
SRPK1 (Homo sapiens, UniProt Q96SB4); binding, competition with immobilised ligand: 86%
CDKL5 (Homo sapiens, UniProt O76039); binding, competition with immobilised ligand: 100%

Set 3
Structure (SMILES): CCN1/C(=C/C=C2\CCCC(/C=C/C3=[N+](CC)c4ccccc4C3(C)C)=C2NCCCCCCCCN2CCC(Nc3nc4ccccc4n3Cc3ccc(F)cc3)CC2)C(C)(C)c2ccccc21
Cell line: U-87 MG
Concentration: concentration not given
Baseline: DMSO
Endpoint: log2 fold change
measured: CCDC59 mRNA: 0.99
measured: LRCH2 mRNA: 2.33
measured: TUFT1 mRNA: 1.29
measured: SELENOI mRNA: 0.903
measured: PIGA mRNA: 1.78
measured: C6orf141 mRNA: -1.27
measured: CLK1 mRNA: 1.79
measured: GPR19 mRNA: -1.52
measured: ASB2 mRNA: -2.26
measured: ADGRF2 mRNA: -3.69
measured: LARP1B mRNA: 0.988
measured: TBCEL mRNA: 0.937
measured: CBX5 mRNA: -1.31
measured: BCL10 mRNA: 1.23
measured: PLCE1 mRNA: -1.51
measured: FAM72C mRNA: -2.12

Set 4
Compound: C[C@@H]1CN(c2ccc(-c3cc(C(=O)NCCOCCOCCOCCOCCNC(=O)/C=C/c4[nH]cc(C(=O)N[C@@H](CC(N)=O)c5ccc(F)c(Cl)c5)c4-c4ccc(Cl)cc4F)ccc3F)cc2NC(=O)c2c[nH]c(=O)cc2C(F)(F)F)C[C@H](C)N1C
Read-out: thermal unfolding
Technique: differential scanning fluorimetry
Concentration: 5.5 µM
Reading: higher = more unfolded
Endpoint: SYPRO Orange fluorescence
DCAF1: DDB1- and CUL4-associated factor 1 (DCAF1, Homo sapiens, UniProt Q9Y4B6)
Sequence of UniProt Q9Y4B6 (whole entry, looked up): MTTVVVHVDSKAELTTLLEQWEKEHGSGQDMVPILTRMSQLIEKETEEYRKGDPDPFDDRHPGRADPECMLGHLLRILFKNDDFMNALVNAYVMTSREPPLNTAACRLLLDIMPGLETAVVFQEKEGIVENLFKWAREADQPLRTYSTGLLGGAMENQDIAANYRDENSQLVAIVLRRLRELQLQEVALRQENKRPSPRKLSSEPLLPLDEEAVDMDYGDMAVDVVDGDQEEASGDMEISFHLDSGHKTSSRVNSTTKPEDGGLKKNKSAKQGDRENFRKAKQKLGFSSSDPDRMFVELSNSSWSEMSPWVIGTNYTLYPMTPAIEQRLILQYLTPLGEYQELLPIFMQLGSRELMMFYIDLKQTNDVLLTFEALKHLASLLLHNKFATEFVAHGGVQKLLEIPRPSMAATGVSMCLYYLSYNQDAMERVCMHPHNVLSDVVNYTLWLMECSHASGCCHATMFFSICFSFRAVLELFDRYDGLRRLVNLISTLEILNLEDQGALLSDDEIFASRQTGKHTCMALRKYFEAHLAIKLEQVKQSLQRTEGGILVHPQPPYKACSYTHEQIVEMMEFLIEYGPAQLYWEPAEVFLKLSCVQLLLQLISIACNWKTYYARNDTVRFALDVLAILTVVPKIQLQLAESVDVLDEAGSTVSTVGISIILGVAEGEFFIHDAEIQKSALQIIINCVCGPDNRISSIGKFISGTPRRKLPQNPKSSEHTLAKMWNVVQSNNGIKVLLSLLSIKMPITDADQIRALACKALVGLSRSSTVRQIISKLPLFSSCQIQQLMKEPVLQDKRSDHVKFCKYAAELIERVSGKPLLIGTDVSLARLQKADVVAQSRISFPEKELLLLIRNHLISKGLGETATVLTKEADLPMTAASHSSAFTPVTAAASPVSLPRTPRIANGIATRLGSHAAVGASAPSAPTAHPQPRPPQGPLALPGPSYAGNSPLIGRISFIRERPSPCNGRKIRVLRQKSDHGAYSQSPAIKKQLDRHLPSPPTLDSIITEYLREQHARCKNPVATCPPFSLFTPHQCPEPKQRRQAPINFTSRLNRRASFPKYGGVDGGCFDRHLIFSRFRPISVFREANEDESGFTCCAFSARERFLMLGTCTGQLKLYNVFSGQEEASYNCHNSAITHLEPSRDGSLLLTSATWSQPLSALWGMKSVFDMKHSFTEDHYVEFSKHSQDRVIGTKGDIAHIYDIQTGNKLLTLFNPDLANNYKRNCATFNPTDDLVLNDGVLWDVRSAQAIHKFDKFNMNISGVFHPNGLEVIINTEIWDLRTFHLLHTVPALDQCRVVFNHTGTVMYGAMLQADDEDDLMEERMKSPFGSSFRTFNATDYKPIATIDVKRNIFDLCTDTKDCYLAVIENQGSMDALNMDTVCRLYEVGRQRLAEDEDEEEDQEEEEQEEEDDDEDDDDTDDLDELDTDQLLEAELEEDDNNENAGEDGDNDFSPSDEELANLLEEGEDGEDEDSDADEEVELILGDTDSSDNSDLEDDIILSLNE
WDR5: WD repeat-containing protein 5 (WDR5, Homo sapiens, UniProt P61964)
DCAF1; 56.41 °C: 25200 a.u.
WDR5; 62.41 °C: 14700 a.u.
DCAF1; 35.2 °C: 10300 a.u.
DCAF1; 85.21 °C: 40000 a.u.
WDR5; 69.41 °C: 15500 a.u.
WDR5; 61.81 °C: 15000 a.u.
WDR5; 40.2 °C: 13800 a.u.
DCAF1; 73.01 °C: 52200 a.u.
WDR5; 54.01 °C: 16800 a.u.
DCAF1; 76.21 °C: 48700 a.u.
WDR5; 81.41 °C: 44400 a.u.
